Published values pooled from the literature.
Every numbered part comes from another study and shows a few of its results, in no order.

Study 1
Target: Histone acetyltransferase KAT6A, winged helix 1, GST fusion (KAT6A, Homo sapiens, UniProt Q92794, residues 1-85)
Method: protein binding microarray
Form: double-stranded DNA, one strand shown
Sample: in vitro
Tested at: not given
Notes: 8-mer, flanks averaged, mean of 2 arrays, mostly near background
Relative to: not given
Direction: higher = stronger binding
Quantity: E-score
Target sequence (chain): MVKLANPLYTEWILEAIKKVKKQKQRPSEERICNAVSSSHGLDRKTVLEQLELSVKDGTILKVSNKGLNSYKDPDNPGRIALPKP
CAGAGCAA: -0.236
CAGGGGAC: -0.0219
CGCATTGA: 0.252
AGCGTTCG: 0.00873
AGGAAAAA: -0.113
GTAACCAA: -0.0282
GGTGTTTA: 0.136
CAGCGGAA: 0.218
GTTACAAC: 0.0108
ACTTACAT: -0.178
AGTCGGGG: 0.112
ACACTGCG: 0.246
AAAACTAG: -0.116
CAAAAGGA: -0.175
CGGCGCGA: 0.415
ACAGATTG: -0.115
AGAAGCTC: -0.139
GCGCATCA: 0.263
CCTCTCCA: -0.167

Study 2
Target: Probable WRKY transcription factor 11, DNA-binding domain (WRKY11, Arabidopsis thaliana, UniProt Q9SV15, residues 228-325)
Method: DNA-protein interaction ELISA
Form: double-stranded DNA, one strand shown
Sample: in vitro, bacterial lysate
Tested at: not given
Notes: whole dsDNA probe, crude lysate protein
Relative to: highest signal in screen
Direction: higher = stronger binding
Quantity: relative absorbance
Residues (chain): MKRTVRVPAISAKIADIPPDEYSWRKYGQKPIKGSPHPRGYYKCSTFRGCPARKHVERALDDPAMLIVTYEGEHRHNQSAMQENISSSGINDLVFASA
AAAAAATGGTTTCAATTTTCCGTCCGAAAA: 10.1 % of maximum
AAAAAATTCTTTTTTCTTCAAGGTCTAAAA: 15.8 % of maximum
AAAAAAGTCCATAAACTAAATTGGATAAAA: 14.1 % of maximum
AAAAAAAAATTTCGAGCCTCGGCGTAAAAA: 12.4 % of maximum
AAAAAAGCTAGTCGATTCGGCTTAGAAAAA: 16.1 % of maximum
AAAAAACCTACGATGGTTCTGATCTTAAAA: 16.4 % of maximum
AAAAAAGCGTAAGCCTTGACAGTCGTAAAA: 18.7 % of maximum
AAAAAAATTACGCGGGATCGCCAAAA: 16.1 % of maximum
AAAAAAAACTGTCGCCCCCGGCTGGCAAAA: 13.3 % of maximum
AAAAAAAGTTCCAGGTCCGATGCTCAAAAA: 16.7 % of maximum
AAAAAATAATTACAAGTCGGCTCCACAAAA: 18.4 % of maximum
AAAAAACTACCTCTACTCTAGCCTTAAAAA: 13.8 % of maximum
AAAAAACACAGCATTAGGCTATCGGTAAAA: 16.1 % of maximum
AAAAAACTGGCGACTGCCAGTGGTAGAAAA: 10.4 % of maximum
AAAAAATTCACTTTTACCTTTGTGTTAAAA: 14.1 % of maximum

Study 3
Target: Phosphate system positive regulatory protein PHO4, full length, GST-tagged (PHO4, Saccharomyces cerevisiae, UniProt P07270, residues 1-312)
Method: competition protein-binding microarray
Form: double-stranded DNA, one strand shown
Sample: in vitro
Tested at: 2 µM
Notes: whole 60-bp probe, lowest competitor level
Together with: Cbf1 competitor, 0.05 µM
Direction: higher = stronger binding
Quantity: fluorescence intensity
Constant ends, left off below: … GTCTTGATTCGCTTGACGCTGCTG
Construct (chain): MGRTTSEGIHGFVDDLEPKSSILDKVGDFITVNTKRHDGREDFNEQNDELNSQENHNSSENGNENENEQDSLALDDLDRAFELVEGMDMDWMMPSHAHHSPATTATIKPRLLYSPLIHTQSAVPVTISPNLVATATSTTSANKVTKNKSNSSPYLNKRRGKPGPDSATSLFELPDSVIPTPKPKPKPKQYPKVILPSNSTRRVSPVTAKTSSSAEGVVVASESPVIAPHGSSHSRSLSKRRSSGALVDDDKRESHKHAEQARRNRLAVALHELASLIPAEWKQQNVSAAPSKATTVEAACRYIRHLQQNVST
GGGAACTAGGCAAAGCACGGGTTTGGCGAGGCCGCT: 8650 a.u.
AAATTACTAAGTTGTCACGCTACTTACCCCGTATGA: 6150 a.u.
CACAAGACGATTTTGCACGTGGTGAGTTTTGTAAGC: 16800 a.u.
GGACACTTTTCCCGTCACGTGGAACCGGCTTACAAG: 14000 a.u.
CGGACGCCCACTCCTCACGGGAATAAGTTAGAATGT: 6360 a.u.
TTCTAGGTATTGATGCAGGTGAGGAAAAGGAAAAAG: 4120 a.u.
AAATTACTAAGTTTTCACGTGAGGTACCCCGTATGA: 9810 a.u.
AAATTACTAAGTTGTCACAGCACTTACCCCGTATGA: 3990 a.u.
ATGTACAGTGGTACCCTCGTGTTTTCTGCAGCGAGA: 11400 a.u.
AAGAATCTAAGCCAACACGCACAATAGACTCGAATG: 7200 a.u.
CATGTTTTGCCCGAAATCGTGCCAGTGATAAATCGG: 8870 a.u.
AAATTACTAAGTTGAGGTGTGGGTGACGCCGTATGA: 5800 a.u.
CTAACGAAGGTTTGTCGTGTGGGTGACAAGCCAAGT: 5370 a.u.
CTTAAAATGTGTACGATGTGTACACATCAACCTACT: 5320 a.u.
GTATTTTTTGTTTTTCACGTGATGGAATCGGCTTCG: 13700 a.u.
ATTTGAAGCTCCAATCACGTGATGGAAAGCTGTAAG: 13700 a.u.

Study 4
Target: RNA binding protein fox-1 homolog 2, RRM domain, GST-SBP tag (RBFOX2, Homo sapiens, UniProt O43251-10, residues 100-194)
Method: RNA Bind-n-Seq
Form: RNA
Sample: in vitro
Tested at: 365 nM
Notes: natural RNA segment, single round, ends assumed
Relative to: no-protein control
Direction: higher = stronger binding
Quantity: RBNS enrichment (R)
Constant ends, left off below: GGGAGUUCUACAGUCCGACGAUC … UGGAAUUCUCGGGUGCCAA
Target sequence (chain): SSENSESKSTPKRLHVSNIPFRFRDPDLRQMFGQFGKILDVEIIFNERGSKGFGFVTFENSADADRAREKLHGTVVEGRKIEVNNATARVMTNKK
AGCUGAGGCAGGAGGAUCAUGAAUUCAAAGCCAGCCUGGGAUACAUAGCAAGUUUCAGGGCAGUGUGGGUAUGAGGUUGUGUCUCAAAAACAUUUGAAAGCAUGUUGUGC: 3.89
CUCCUUCUGGCUCUGAUGUCCUGUGACUGUAGUGUCACCACCUCCCCUGGGAGUCAGACCAGGGACUCCUCAGGGAGUGAAAUGUGCUUCAGGACACACAGGACUCGAGC: 0.283
GGGGAAAGGAAGGAAGUGCAUGUUUGGGAACUGGCAUUACUGGAACUAAUGGUUUUAACCUCCUUAACCACCAGCAUCCCUCCUCUCCCCAAGGUGAAGUGGAGGGUGCU: 3.83
GUAGAGAUGGUUUCACCAUGCUGGCCAGGCUGGUCUUGAACUCCUGACCUCAGGUGAUCCUCCCGCCUCAGCCUUCCAAAGUGCUGGGAUUACAAGCAUGAGCCACCGCA: 7.77
UGCAACAGAACACUUUGGUCUUCCUACACCAAGUCUGUGAGGGCAUCCAAGACUGAAUGAAAGCGCUUUUCUUAUGCAUACAAUGUGAGCAAGAACAAGAACUGUUUAAG: 0.38
CUUAUUCAUCUGAGCCGUCUCCACAGUCCCAAUGCCUCUGCUUUUUGUUUUACUUUUGUAGCAUAAGGUUUUUGCUUUUGCUUUGCCUUAAGAGUUCCCUAGGGAGUUAC: 0.51
GGGAAAGCCAAGAAUAAAUGUCACUCCAGAACACAUUUUUUUUUAGCAAUAAAAUGGUGUCAAAUGUAUUGACCAUGGCCCUAGAGUCUGAGUAAUACCAGGUGUGUUGU: 0.327
AAUGUCCUUGGAAACAUAAAUGCCUGCCAAUAACAUGGAAUAUUGAAUUCGGGCAAUGUGAAUUGAUUAAUUAGAAAAGGGUCAAAAGAAAUACAAUGGAUGUGGAAACU: 1.33
AUCUCAGCUCCCUGCAACUUCUGCCUCCCAGGUUCAAGCGAUUCUCCUGCCUUAGCCUCCUGAGUAGCUGGGUCAGCCACCAUGGCUGACUCAUUUUUUGUAUUUUUAGU: 0.973
UAUCCUGACUGACUCAACCCAGCAGAGCAUAAAUUGACUUGAGAGCCUUACCUUUGAUGUCUGAAAUGAAACCCCCUUCUCCAAAGGCAAAAUUCGGAGACUUUGAUCUU: 0.43
CUUAUUUGUGCAGUCUGACUACACAGAGGCGUAUAAUCCCAAAAUGAAACGUGAUGAACGCACCUUAAUAAAUCCAGAUAUUAAAGUUGUAGACUUUGGUAGUGCAACAU: 1.29
UGAGCCCAAAACGGGAAUAUUAGUUUUAUGUCGGAGGUGUGUUCCAAGUUUGUCAAUGAGGCUAUAGCCUCAAGAAGAUGCCAUCUGCCUGAAUGUUGACAUGCCAGCGG: 0.63

Study 5
Target: Hepatocyte nuclear factor 3-alpha (Foxa1, Mus musculus, UniProt P35582, residues 1-468, full length assumed)
Method: EMSA with sequencing
Form: double-stranded DNA, one strand shown
Sample: in vitro
Tested at: 10 and 20 nM
Notes: whole designed probe, mean of two concentrations, ends assumed
Relative to: negative control set to 0
Direction: higher = stronger binding
Quantity: normalised bound fraction
Constant ends, left off below: GTGAGCGGTGCCCATTGATGGGGAAC … TTTCACTGGGATCGTGGGGAC
Construct (chain): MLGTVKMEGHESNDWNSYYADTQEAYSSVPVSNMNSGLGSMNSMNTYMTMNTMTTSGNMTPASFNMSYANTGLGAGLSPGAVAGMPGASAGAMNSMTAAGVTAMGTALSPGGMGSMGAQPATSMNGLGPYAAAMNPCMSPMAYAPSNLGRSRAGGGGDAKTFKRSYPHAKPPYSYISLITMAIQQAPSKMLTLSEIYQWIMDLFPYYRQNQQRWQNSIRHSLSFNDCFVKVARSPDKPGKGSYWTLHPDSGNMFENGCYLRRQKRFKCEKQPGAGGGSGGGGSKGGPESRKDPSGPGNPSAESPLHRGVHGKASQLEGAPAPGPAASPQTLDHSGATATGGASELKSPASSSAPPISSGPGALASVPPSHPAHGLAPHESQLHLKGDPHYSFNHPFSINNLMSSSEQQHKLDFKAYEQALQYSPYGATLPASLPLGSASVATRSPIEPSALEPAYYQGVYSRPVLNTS
ATCTTCCCCCTCTTCCTTGCCCCACCAGCTCACCTTCCCGGGTTATTTGCAGATAGGAAAATAAATAAAGCCGGCATTCGTTAACCCTCTTCTGGCGCAAACTGCTGTTTGCTCTGGATGAATCATGGTCCTTTGGCGACGCCAGGCTCCGGGAGAGCAAAGCACCGTGTCAGGGCCATGATCGGGGCGGCTC: 0.327 ratio
TACTTATGGGTTGATTTCTGGAATCATTGCTTTATTTGGTGGTATTCACTAAGTAGGTCACTTGCATTCATTTACATAGGAAAGCTGCTTGTGTAAATAGCAAGGTCCCTTATGAGTCAGCATTACATGTCAGCATAAAGGGAGAAAACACGAAGCATTTTACAAATAATACTCTTTAGGTGAACACATTTTG: 0.429 ratio
AAATTCTGCAATTACATCACCTCATCTGCACCTGATGAATAAAAATAAATTATTTCAAAGTTTTAAAAAGTGCAACAATGATTTGCAAGACAGAGTAAACATACAGTAAAGGTTTTAATTCCTGAGACTTAAGTTGGATAGGTCTAGATTTTCATCAAGGAAAACAAAAGTATGATGTTAAATTCAAATTCTA: 0.247 ratio
AAATGCCAACGTGTATTGGACTTCCCTCTAGTGGTTACATGCAAAATGACAAGCCTATAGTTCCCAAACAGAATGTTGTGTTGTTCTCTACACTGTTTACTTAGCAATCAGCATATTTACTGTGCTTCACTCCATGTACCTTCCATTCACACACTTGGCAAACACCATATCTTCCATGATATTCTCCTGTATC: 0.502 ratio
CTTCCAAATTACATGAGATTTCTGTTTCTACATTTTCTTTGTCTTGGCATATTTGATGATGTGCATTGAGTCATTATATAGCTTCTAAGAATCAGATTACTTTTTACTATGTTAACAATGAGTTCTTGGGGATATTCCTGTTTGAAAATCACTGTACGTGTAGTAAATCTATTTCTGGGATCTCCATTCCCAT: 0.0652 ratio
TTTCCAGCCCTTAGTTTCTGGCATTTAACCTGACTCTGGTCCCTGAATGGCATGGGAGTGCTTTCAACCACAGGTTTCCACATTCATGCCACTTGTTTGCTTTTTGATCTACCTGACTCATTCAGAGATCTTTATTTGCTTTGTGTTTCCAATGGAGAAAGAGCTTGGGAAGGGAGGATCCTAATTGTCTAAA: 0.492 ratio
GAGCTGCTTGCAATTGAGTTGTATGTATGCTTCCACTTAATACGTCCTGCCGAGCCTGTCACTTCCGGCAAGCCAACAGGAATCTGCCCTCTGTGTTTACCTACTCTCTTTTTATGTCTTATTCCCAGAATGACTGGGGACCAAAGGAATCCTTTGCAGGAGTTTTCTCCAGACAGACAGTTCCACATGCTAG: 0.25 ratio
TTTTAAGTGAAATCAACTGAAACCTTACTTTTTTTTGCTTTTATACCTAAAATAGAGGATTTAGATATATTTTCTAGGAACGATGATGTAATATGTAAACAAGGAATTTTGGTATTGTTTGAAATATTTTCTCATGGGGACACACCACTAAATTTGTCACCTCTAAAACAGTACTTAGGTTAAATGCTTTTTA: 0.32 ratio

A few entries again (study 4):
GGGAAAGCCAAGAAUAAAUGUCACUCCAGAACACAUUUUUUUUUAGCAAUAAAAUGGUGUCAAAUGUAUUGACCAUGGCCCUAGAGUCUGAGUAAUACCAGGUGUGUUGU: 0.327
AAUGUCCUUGGAAACAUAAAUGCCUGCCAAUAACAUGGAAUAUUGAAUUCGGGCAAUGUGAAUUGAUUAAUUAGAAAAGGGUCAAAAGAAAUACAAUGGAUGUGGAAACU: 1.33
AUCUCAGCUCCCUGCAACUUCUGCCUCCCAGGUUCAAGCGAUUCUCCUGCCUUAGCCUCCUGAGUAGCUGGGUCAGCCACCAUGGCUGACUCAUUUUUUGUAUUUUUAGU: 0.973
UAUCCUGACUGACUCAACCCAGCAGAGCAUAAAUUGACUUGAGAGCCUUACCUUUGAUGUCUGAAAUGAAACCCCCUUCUCCAAAGGCAAAAUUCGGAGACUUUGAUCUU: 0.43
